Results collected from several papers.

Structure (SMILES) | test system | setting | scale | endpoint | value
CCCCCC(O)C=CC1OC2OC(C2F)C1CC=CCCCC(=O)O (centres unmarked) | 50 mM phosphate buffer | pH 7.40, 23 °C | – | hydrolysis rate constant | 3.93e-07 s⁻¹
C=CC(=O)OCCCCCCOC(C)(C)OCC1OC(n2ccc(N)nc2=O)C(F)(F)C1O (centres unmarked) | phosphate buffer, 40% acetonitrile | 50 µM, pH 5.0, 37 °C | – | hydrolysis half-life | 9.2 min
COC(=O)C(Cc1c[nH]cn1)NC(=O)C1(C)C(O)CCC2(C)C1CCC1(C)C2CC=C2C3C(C)C(C)CCC3(C)CCC21C (centres unmarked) | rat faecal matter in buffer | 37 °C | – | hydrolysis rate constant | 1.5e-05 s⁻¹
CCOC(=O)CCC(=O)Oc1ccc(/C=C/C(=O)/C=C(O)/C=C/c2ccc(OC(=O)CCC(=O)OCC)c(OC)c2)cc1OC | rat plasma | 1.5 µM | relative to: rat plasma over buffer pH 7.4 | hydrolysis rate ratio | 5300
CCCCCC(O)C=CC1OC2OC(C1CC=CCCCC(=O)O)C2(F)F (centres unmarked) | aqueous buffer | pH 2.42 | – | hydrolysis rate constant k1′ | 1.01e-06 s⁻¹
C=CC(=O)OCCCCCCOC(C)(C)O[C@H]1C[C@H]2OC[C@@]2(OC(C)=O)[C@H]2[C@H](OC(=O)c3ccccc3)[C@]3(O)C[C@H](OC(=O)[C@H](O)[C@@H](NC(=O)c4ccccc4)c4ccccc4)C(C)=C([C@@H](OC(C)=O)C(=O)[C@]12C)C3(C)C | phosphate buffer, 40% acetonitrile | 50 µM, pH 5.0, 37 °C | – | hydrolysis half-life | 37 min
COc1ccc(S(=O)(=O)N/N=C/c2ccc(C#N)cc2)cc1OC | buffer | concentration not given, time not given, pH 2, 37 °C | – | hydrolysis | ~60%
CC(=O)NC1C(N=C(N)N)C=C(C(=O)OC(C)OC(=O)C(N)C(C)C)OC1C(O)C(O)CO (mixture of isomers) | Caco-2 homogenate | concentration not given, pH 7.4, 37 °C | relative to: buffer alone | hydrolysis | no effect

Repeated from above:
Structure (SMILES) | test system | setting | scale | endpoint | value
CCOC(=O)CCC(=O)Oc1ccc(/C=C/C(=O)/C=C(O)/C=C/c2ccc(OC(=O)CCC(=O)OCC)c(OC)c2)cc1OC | rat plasma | 1.5 µM | relative to: rat plasma over buffer pH 7.4 | hydrolysis rate ratio | 5300
